Assay results of several laboratories.
Each line is one published result; not all experiments were run side by side. Values joined by “and” are separate records of one study, mostly repeats; a detail may differ. ± marks the error that the study gave.
Sequence of UniProt P30291 (whole entry, looked up): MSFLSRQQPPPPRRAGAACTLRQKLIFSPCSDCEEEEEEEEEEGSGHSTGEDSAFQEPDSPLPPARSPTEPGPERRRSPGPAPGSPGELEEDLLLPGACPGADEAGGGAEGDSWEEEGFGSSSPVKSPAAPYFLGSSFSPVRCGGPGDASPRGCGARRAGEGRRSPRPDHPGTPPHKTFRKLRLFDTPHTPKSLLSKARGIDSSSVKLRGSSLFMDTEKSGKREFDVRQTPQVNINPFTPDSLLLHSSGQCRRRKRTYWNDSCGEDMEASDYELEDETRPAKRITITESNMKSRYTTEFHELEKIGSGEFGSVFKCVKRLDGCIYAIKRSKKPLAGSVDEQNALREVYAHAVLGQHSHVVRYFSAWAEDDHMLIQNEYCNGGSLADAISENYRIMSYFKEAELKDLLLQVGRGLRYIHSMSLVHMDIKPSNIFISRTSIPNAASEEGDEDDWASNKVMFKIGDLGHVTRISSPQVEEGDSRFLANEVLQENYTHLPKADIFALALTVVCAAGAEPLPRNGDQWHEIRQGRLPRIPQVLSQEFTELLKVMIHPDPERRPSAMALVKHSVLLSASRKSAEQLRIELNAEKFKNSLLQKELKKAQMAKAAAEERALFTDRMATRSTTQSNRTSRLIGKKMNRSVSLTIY
Sequence of UniProt Q9UM73 (whole entry, unmodified, looked up): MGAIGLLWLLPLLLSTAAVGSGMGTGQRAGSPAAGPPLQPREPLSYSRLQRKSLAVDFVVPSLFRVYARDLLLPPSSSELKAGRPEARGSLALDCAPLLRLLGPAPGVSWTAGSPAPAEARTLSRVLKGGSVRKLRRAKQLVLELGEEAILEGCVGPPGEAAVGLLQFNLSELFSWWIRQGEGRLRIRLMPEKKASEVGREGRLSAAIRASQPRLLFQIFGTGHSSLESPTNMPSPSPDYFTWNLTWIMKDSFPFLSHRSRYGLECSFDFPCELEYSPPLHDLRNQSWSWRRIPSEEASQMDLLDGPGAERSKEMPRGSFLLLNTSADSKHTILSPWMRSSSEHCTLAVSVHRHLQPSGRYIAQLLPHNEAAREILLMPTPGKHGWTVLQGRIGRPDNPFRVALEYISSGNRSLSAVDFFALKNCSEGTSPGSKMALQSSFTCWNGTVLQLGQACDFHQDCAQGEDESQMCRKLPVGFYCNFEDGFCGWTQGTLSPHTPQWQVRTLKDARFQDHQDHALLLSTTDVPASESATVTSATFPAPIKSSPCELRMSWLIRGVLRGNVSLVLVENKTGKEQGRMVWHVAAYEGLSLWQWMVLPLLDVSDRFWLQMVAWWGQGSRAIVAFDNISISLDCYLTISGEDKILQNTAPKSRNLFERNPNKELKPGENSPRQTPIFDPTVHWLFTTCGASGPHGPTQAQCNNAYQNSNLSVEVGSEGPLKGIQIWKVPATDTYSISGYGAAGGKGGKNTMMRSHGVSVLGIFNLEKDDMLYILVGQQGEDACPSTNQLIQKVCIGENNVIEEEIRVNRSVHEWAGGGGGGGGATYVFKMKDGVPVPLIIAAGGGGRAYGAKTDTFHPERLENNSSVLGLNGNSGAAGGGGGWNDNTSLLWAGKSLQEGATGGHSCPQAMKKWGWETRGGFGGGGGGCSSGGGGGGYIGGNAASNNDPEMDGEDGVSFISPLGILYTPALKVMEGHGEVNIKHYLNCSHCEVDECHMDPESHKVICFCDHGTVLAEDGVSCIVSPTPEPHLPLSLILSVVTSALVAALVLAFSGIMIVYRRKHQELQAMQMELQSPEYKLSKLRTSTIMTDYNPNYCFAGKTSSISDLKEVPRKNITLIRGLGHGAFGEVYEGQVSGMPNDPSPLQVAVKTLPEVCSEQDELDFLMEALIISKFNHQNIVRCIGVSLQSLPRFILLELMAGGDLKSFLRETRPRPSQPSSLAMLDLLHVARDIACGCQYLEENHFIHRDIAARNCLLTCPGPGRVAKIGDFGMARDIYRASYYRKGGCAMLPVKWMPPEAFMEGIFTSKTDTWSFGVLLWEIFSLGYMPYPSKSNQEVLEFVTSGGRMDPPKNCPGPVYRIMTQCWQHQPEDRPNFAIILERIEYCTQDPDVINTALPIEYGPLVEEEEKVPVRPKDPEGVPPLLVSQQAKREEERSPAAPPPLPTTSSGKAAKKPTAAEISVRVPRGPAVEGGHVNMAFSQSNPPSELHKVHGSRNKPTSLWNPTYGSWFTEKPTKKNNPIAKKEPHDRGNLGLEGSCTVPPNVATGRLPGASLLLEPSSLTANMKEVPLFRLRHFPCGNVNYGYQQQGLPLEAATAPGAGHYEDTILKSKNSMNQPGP

CCCC[C@H](NC(=O)CCCCCCCNC(=O)CN1CCN(CC(=O)O)CCN(CC(=O)O)CC1)C(=O)N[C@H]1CC(=O)NCCCC[C@@H](C(N)=O)NC(=O)[C@H](Cc2c[nH]c3ccccc23)NC(=O)[C@H](CCCNC(=N)N)NC(=O)[C@@H](Cc2ccccc2)NC(=O)[C@H](Cc2c[nH]cn2)NC1=O [technetium-99m labelled]  tissue uptake (C57 mouse, intestine; intravenous, 0.037 MBq, 4 h): 29.7 ± 3.43 %ID
Cc1nn(-c2cccc(N)c2)c(=O)c2cnc(Nc3ccc(N4CCNCC4)cc3)nc12  IC50 (Wee1-like protein kinase (WEE1, Homo sapiens, UniProt P30291); kinase activity, inhibitor, SelectScreen kinase profiling): 35.2 nM
CN(C)C(=O)CNC(=O)c1ccc(C2CCCCC2)cc1  hepatic clearance (hepatocyte stability; cryopreserved rat hepatocytes; 1 µM): 47 mL/min/kg
COc1cccc(OC)c1-c1cc(C(=O)NC2(C(=O)O)C3CC4CC(C3)CC2C4)nn1-c1ccc(C(=O)N(C)CCOCCN(C)C(=O)[C@H](CCCCNC(=O)[C@H](CC(C)C)NC(=O)C2OC2C(=O)O)NC(=O)CN2CCN(CC(=O)[O-])CCN(CC(=O)[O-])CCN(CC(=O)[O-])CC2)cc1C(C)C.[177Lu+3] (mixture of isomers)  tumour-to-bone ratio (mouse, HT-29 xenograft; 24 h post injection, biodistribution; baseline: tumour over bone uptake): 6.71
C=C1C[C@]2(C(=O)OC)C=C(C(=O)Nc3cccc(C(=O)Nc4ccc(Nc5nccc(-c6cccnc6)n5)c(C)c4)c3)C(=O)[C@H]1C2  compound remaining (Wistar rat, male, plasma; 10 µM, 120 min): 0.79% and 0.58%
COc1ccccc1NC(=O)OC1C(C)C(OC)C=COC2(C)Oc3c(C)c(O)c4c(c3C2=O)C2=NC3(CCN(CC(C)C)CC3)NC2=C(NC(=O)C(C)=CC=CC(C)C(O)C(C)C(O)C1C)C4=O (stereo not shown)  fAUC/MIC ratio (CD-1 mouse female, plasma; oral, 10 mg/kg): 0.84
Nc1ncc(-c2cc(-c3cnn(CC(F)(F)F)c3)ncc2F)nc1C(=O)NC1CNCC(F)C1 (stereo not shown)  remaining binding (PAK7; KINOMEscan; 1 µM; baseline: DMSO control): 73%
CCn1nc(Cl)c2c1-c1cnc(N)c(c1)O[C@H](C)c1cc(F)ccc1-c1nn(C)cc1C2  IC50 (ALK tyrosine kinase receptor (ALK, Homo sapiens, UniProt Q9UM73, D1203N); enzyme activity, inhibitor; with: 1 mM ATP): 6.8 nM
CC(C)C[C@H](NC(=O)[C@H](Cc1ccc(O)cc1)NC(=O)[C@@H](CCCNC(=N)N)NC(=O)[C@@H](CO)NC(=O)[C@H](Cc1ccccc1)NC(=O)[C@H](CC1CCCCC1)NC(=O)[C@H](CC(=O)O)NC(=O)CN1CCN(CC(=O)O)CCN(CC(=O)O)CCN(CC(=O)O)CC1)C(=O)N[C@@H](Cc1c[nH]c2ccccc12)C(=O)N[C@@H](CO)C(=O)O [copper-64 labelled]  activity concentration (human, bone; concentration not given, 1 h): 1100 Bq/mL and 614 Bq/mL and 560 Bq/mL and 764 Bq/mL and 574 Bq/mL and 454 Bq/mL
COc1ccc2c(c1)CN(C(=O)CCN1CCC(Cc3ccccc3)CC1)CC[S@@+]2[O-]  unbound Cmax (healthy male volunteers, plasma; intravenous, 0.6 mg/kg): 400 nM
O=C(NCCO)c1ccc([C@H]2[C@@H](F)[C@@H](F)C[C@@H](F)[C@H]2F)cc1  hepatic clearance (liver microsome stability; rat liver microsomes; 1 µM): 6.1 mL/min/kg
O=C(Nc1cnccc1-c1ccc([18F])nc1)c1ccnc(NC(=O)C2CC2)c1  SUV (PET imaging; FVB/NJ mice, both sexes, liver; intravenous, 120 min post-injection): 6.02
Cc1cc(-c2ccc(C(=O)[C@@H]3CCCC[C@H]3C(=O)Nc3cnn4c3C(=O)NCC4)cc2)[nH]n1  recovery of radioactivity per interval (human, faeces; oral, 200 mg, 168-192 h; baseline: dose): 0.39%
NS(=O)(=O)c1cccc(-c2ccc([C@H]3[C@@H](F)[C@@H](F)C[C@@H](F)[C@H]3F)cc2)c1  hepatic clearance (hepatocyte stability; cryopreserved rat hepatocytes; 1 µM): 10 mL/min/kg
C=CC(=O)Nc1cc(Nc2nccc(-c3c[nH]c4ccccc34)n2)c(OC)cc1N(C)CCN(C)C  recovery (storage stability; human dried blood spots; 72 h, on ice, LLOQ level): 70.3%
COc1cc(N2CCN(C(=O)C3CCCN3)CC2)ccc1Nc1ncc(Cl)c(Nc2ccccc2P(C)(C)=O)n1 (stereo not shown)  body weight (nude mice, NCI-H3122 xenograft; oral, dose not given, day 15): 25 g and 23.2 g and 23 g and 23.7 g and 23.5 g
O=C(Nc1ccc(C2CCCCC2)cc1)C1(N2CCOCC2)CC1  hepatic clearance (hepatocyte stability; cryopreserved mouse hepatocytes; 1 µM): 51 mL/min/kg
C=CC(=O)Nc1cccc(Cn2ncc3cnc(Nc4cnn(CCOC)c4)nc32)c1  percent of control (CSK human; binding, KINOMEscan; 100 nM; lower = stronger binding): 100%
CCCC[C@H](NC(=O)COCCOCCNC(=O)CN1CCN(CC(=O)O)CCN(CC(=O)O)CC1)C(=O)N[C@H]1CC(=O)NCCCC[C@@H](C(N)=O)NC(=O)[C@H](Cc2c[nH]c3ccccc23)NC(=O)[C@H](CCCNC(=N)N)NC(=O)[C@@H](Cc2ccccc2)NC(=O)[C@H](Cc2c[nH]cn2)NC1=O [technetium-99m labelled]  tissue uptake (C57 mouse, muscle; intravenous, 0.037 MBq, 24 h): 0.06 ± 0.02 %ID/g
O=C(CN1CCOCC1)Nc1ccc([C@H]2[C@@H](F)[C@@H](F)C[C@@H](F)[C@H]2F)cc1  hepatic clearance (liver microsome stability; rat liver microsomes; 1 µM): 13 mL/min/kg
CC1(C)CC[C@]2(NC(=O)C(C)(F)F)CC[C@]3(C)[C@H](C(=O)C=C4[C@@]5(C)C=C(C#N)C(=O)C(C)(C)[C@@H]5CC[C@]43C)[C@@H]2C1  AUC(0-inf) (geometric least squares mean; human, plasma; oral, 150 mg, given alone): 1730 ng·h/mL
COC1CN([C@H]2CC[C@H]([C@@]3(C)Oc4c(Cl)cc(C(=O)NCc5c(SC)cc(C)[nH]c5=O)c(C)c4O3)CC2)C1  log2 fold change (RNA-seq, refers to: PDGFRL mouse homolog; mouse, HT-1376 xenograft, whole blood; dose not given; baseline: vehicle): 1.16
O=C(N1CCCCC1)C12CC(c3ccccc3)(C1)C2(Cl)Cl  elimination rate constant (pooled human liver microsomes; 2 µM, pH 7.4): 0.00045 s⁻¹
CCc1cnc(NC(=O)c2cc(S(=O)(=O)N3CCOCC3)ccc2N(C)C2CCCC2)s1  Cholesterol (mouse, serum; 10 mg/kg, 3 doses): 102 mg/dL
O=C(NS(=O)(=O)c1cccs1)c1cc2ccccc2n1Cc1ccc(Br)c2ccccc12  plasma concentration (Sprague-Dawley rat, male, plasma; oral, 20 mL/kg, 2 h): 2250 ng/mL

For quick reference, copied from above:
CC(C)C[C@H](NC(=O)[C@H](Cc1ccc(O)cc1)NC(=O)[C@@H](CCCNC(=N)N)NC(=O)[C@@H](CO)NC(=O)[C@H](Cc1ccccc1)NC(=O)[C@H](CC1CCCCC1)NC(=O)[C@H](CC(=O)O)NC(=O)CN1CCN(CC(=O)O)CCN(CC(=O)O)CCN(CC(=O)O)CC1)C(=O)N[C@@H](Cc1c[nH]c2ccccc12)C(=O)N[C@@H](CO)C(=O)O [copper-64 labelled]  activity concentration (human, bone; concentration not given, 1 h): 1100 Bq/mL and 614 Bq/mL and 560 Bq/mL and 764 Bq/mL and 574 Bq/mL and 454 Bq/mL
Nc1ncc(-c2cc(-c3cnn(CC(F)(F)F)c3)ncc2F)nc1C(=O)NC1CNCC(F)C1 (stereo not shown)  remaining binding (PAK7; KINOMEscan; 1 µM; baseline: DMSO control): 73%
COc1ccccc1NC(=O)OC1C(C)C(OC)C=COC2(C)Oc3c(C)c(O)c4c(c3C2=O)C2=NC3(CCN(CC(C)C)CC3)NC2=C(NC(=O)C(C)=CC=CC(C)C(O)C(C)C(O)C1C)C4=O (stereo not shown)  fAUC/MIC ratio (CD-1 mouse female, plasma; oral, 10 mg/kg): 0.84
